Assay results collected from several papers.
Each numbered part is a random draw from the data of one study; scales do not carry over between parts.
Chain of UniProt O15111 (whole entry, looked up): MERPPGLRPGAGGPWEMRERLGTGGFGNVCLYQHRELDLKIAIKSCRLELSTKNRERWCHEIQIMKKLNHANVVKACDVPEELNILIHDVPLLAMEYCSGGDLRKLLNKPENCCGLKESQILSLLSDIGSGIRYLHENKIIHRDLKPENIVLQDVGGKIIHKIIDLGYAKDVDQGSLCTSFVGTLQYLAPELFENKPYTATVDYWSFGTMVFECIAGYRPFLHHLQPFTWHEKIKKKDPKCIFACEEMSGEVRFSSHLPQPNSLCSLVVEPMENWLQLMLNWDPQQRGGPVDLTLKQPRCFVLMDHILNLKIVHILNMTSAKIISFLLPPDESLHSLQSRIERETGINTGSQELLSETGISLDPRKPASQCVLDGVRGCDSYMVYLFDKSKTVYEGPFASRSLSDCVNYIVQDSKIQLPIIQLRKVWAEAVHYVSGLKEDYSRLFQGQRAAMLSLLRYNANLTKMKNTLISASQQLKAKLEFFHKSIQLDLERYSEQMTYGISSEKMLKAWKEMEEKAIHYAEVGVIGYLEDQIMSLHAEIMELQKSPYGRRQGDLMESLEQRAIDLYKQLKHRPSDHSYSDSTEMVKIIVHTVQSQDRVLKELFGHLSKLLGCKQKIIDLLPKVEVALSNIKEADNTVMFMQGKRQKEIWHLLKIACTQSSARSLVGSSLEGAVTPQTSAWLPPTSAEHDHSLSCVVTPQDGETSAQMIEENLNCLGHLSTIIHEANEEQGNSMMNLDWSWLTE
Chain of UniProt Q13233 (whole entry, looked up): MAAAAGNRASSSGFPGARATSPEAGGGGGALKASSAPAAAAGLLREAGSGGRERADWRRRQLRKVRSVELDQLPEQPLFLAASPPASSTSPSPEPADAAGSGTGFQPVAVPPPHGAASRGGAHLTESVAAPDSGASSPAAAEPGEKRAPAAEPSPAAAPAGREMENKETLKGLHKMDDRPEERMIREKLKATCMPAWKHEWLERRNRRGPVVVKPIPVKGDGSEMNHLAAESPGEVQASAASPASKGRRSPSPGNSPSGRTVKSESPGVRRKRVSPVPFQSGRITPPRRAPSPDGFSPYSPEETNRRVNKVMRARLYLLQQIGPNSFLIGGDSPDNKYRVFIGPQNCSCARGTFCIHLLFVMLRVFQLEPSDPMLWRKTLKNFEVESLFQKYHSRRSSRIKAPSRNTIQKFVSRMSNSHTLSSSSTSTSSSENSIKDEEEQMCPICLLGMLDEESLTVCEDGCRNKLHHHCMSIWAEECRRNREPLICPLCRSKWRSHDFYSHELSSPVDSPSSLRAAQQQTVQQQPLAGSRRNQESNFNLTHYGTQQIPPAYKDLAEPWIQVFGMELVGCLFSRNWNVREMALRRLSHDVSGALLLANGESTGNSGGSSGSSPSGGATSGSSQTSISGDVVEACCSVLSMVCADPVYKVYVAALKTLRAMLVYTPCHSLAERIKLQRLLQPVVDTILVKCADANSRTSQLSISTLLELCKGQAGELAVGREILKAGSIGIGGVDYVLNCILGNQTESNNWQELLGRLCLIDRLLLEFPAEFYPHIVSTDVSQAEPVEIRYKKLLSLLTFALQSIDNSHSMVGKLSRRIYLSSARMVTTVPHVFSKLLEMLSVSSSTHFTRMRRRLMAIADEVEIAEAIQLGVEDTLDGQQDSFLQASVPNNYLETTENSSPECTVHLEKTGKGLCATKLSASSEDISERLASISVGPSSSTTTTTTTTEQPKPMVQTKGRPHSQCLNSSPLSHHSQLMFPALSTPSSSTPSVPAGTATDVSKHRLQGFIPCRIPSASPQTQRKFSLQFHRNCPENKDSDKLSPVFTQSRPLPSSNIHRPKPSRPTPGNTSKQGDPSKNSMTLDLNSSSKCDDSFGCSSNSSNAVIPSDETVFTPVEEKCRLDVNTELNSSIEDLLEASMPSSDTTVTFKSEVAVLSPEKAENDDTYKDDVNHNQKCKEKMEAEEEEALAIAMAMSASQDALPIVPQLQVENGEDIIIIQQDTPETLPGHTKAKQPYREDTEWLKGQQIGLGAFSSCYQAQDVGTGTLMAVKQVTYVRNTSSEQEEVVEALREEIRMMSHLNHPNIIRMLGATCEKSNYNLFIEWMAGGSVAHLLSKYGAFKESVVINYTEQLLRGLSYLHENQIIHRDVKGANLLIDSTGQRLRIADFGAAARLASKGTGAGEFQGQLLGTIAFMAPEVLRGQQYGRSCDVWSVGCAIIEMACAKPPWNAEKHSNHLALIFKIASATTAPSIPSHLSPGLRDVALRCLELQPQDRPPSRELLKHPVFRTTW
Chain of UniProt O75716 (whole entry, looked up): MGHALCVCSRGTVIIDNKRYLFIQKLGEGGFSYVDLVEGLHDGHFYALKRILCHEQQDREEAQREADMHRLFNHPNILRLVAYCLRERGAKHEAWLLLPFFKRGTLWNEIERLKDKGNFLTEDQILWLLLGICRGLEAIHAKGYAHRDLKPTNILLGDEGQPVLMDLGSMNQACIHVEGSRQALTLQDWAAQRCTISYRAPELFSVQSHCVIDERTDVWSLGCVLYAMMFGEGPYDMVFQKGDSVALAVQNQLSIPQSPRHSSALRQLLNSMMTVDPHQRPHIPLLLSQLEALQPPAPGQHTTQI

Block 1 — effect on: enzyme activity; action: inhibitor; tested at: 0.5 µM; relative to: control
Target: Calcium/calmodulin-dependent protein kinase type II subunit alpha (CAMK2A, Homo sapiens, UniProt Q9UQM7)
Chain of UniProt Q9UQM7 (whole entry, looked up): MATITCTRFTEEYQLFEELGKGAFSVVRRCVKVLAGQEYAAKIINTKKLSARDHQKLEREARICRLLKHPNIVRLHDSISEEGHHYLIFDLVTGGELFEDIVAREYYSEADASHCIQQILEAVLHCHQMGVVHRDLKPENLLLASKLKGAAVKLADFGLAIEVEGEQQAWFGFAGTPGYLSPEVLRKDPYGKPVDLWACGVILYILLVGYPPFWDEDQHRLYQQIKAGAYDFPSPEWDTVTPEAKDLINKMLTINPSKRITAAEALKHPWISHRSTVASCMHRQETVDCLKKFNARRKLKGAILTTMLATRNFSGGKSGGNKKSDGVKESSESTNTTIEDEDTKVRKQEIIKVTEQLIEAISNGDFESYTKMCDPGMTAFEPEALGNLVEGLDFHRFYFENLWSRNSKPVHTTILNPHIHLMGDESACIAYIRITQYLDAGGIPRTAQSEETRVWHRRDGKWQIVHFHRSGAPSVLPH
Structure (SMILES)	remaining activity [%]
COc1ccc(OC)c2c(=S)c3ccccc3[nH]c12	100
O=S(=O)(c1cccc2cnccc12)N1CCCNCC1	99.9
NCCNc1ncc(C(N)=O)c(Nc2cccc(C(F)(F)F)c2)n1	82.5
Nc1ncnc2n[nH]c(Nc3ccc(F)cc3)c12	105
O=C1NC(=O)C(c2cn(CCCn3ccnc3)c3ccccc23)=C1Nc1ccccc1	95.5
C#Cc1cccc(Nc2ncnc3cc(OCCOC)c(OCCOC)cc23)c1	97.6
Oc1ccc(-c2nc(-c3ccncc3)c(-c3ccc(F)cc3)[nH]2)cc1	104
O=C(CCCc1ccc(-c2ccccc2F)cc1)Nc1ccc(O)cc1	116
CNC(=O)c1cc(Oc2ccc(NC(=O)Nc3ccc(Cl)c(C(F)(F)F)c3)cc2)ccn1	95.3
CN(C)c1ccc(C=C2C(=O)Nc3ccccc32)cc1	106
O=C1NC(=O)C(c2cn(CCCO)c3ncccc23)=C1c1cnccn1	108
OCC(O)CCON=C1C(c2c(O)[nH]c3ccccc23)=Nc2ccccc21 (stereo not drawn)	12.2
Cc1nc(-c2ccccc2)c(-c2ccncc2)o1	104
Cn1sc(=O)n(Cc2ccccc2)c1=O	106
Nc1ccc2ncnc(NCCc3ccc(Oc4ccccc4)cc3)c2c1	71.3

Block 2 — technique: protein-binding microarray; form: double-stranded DNA, one strand shown; sample: in vitro; tested at: 0.8 µM; setting: whole 60-bp probe, no competitor; reading: higher = stronger binding
Target: Centromere-binding protein 1, full length, N-terminal tag (CBF1, Saccharomyces cerevisiae, UniProt P17106, residues 1-351)
Chain of UniProt P17106 (whole entry, looked up): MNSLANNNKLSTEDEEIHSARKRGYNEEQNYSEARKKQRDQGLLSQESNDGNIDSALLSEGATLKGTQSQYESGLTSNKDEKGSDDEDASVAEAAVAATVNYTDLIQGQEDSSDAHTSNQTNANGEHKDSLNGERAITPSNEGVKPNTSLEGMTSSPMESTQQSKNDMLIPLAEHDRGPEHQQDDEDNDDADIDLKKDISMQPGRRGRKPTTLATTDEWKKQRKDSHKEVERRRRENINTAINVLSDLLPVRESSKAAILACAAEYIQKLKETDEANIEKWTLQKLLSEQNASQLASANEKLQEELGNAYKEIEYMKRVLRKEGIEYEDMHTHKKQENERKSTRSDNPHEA
Oligonucleotide	fluorescence intensity
GAAAGACACCGCCACCACCTGAGCCTCCATGCGTAGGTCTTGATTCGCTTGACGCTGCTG	494 a.u.
GAATTCATGATGTGCCACATGAGTACAGCCGATTAGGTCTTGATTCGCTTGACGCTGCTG	541 a.u.
GAAACGTAATGGAAATTCACCTGCTTTGAATCGTAGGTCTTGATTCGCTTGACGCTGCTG	524 a.u.
GAAAAAAAATGCAATCACGTTTTCACATTTTTTTAGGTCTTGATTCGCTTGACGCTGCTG	2400 a.u.
GAACTCATCTCGTAGATCACCAGGGCACACAACTAGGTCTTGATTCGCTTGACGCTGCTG	570 a.u.
CTATACGGTTGAAATCACGTGTCGTTAGGATAATTCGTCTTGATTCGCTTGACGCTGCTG	9540 a.u.
CTATGTTACAATTACCAGGTGAGTAGGATAGGATTCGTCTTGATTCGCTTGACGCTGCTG	556 a.u.
CTATTCCAGGTTGAGCGCGTGGCTTCCTATAATTTCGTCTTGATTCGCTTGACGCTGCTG	601 a.u.

Block 3 — effect on: cell-free assay; technique: competition with immobilised ligand; tested at: 1 µM
SMILES: O=C(Nc1cccnn1)N1CC(C/C=C/c2cncc(Oc3ccc(C(F)(F)F)cn3)n2)C1
target	remaining binding
Receptor-type tyrosine-protein kinase FLT3, autoinhibited (FLT3, Homo sapiens, UniProt P36888)	86%
MAP3K1 (Homo sapiens, UniProt Q13233)	66%
STK16 (Homo sapiens, UniProt O75716)	98%
CSNK1A1L (Homo sapiens, UniProt Q8N752)	100%
CHUK (Homo sapiens, UniProt O15111)	69%

Block 4 — technique: RNA Bind-n-Seq; form: RNA; sample: in vitro; tested at: 90 pmol; setting: 4-mer, random 30-nt RNA, single round; relative to: input library; reading: higher = stronger binding
Target: Eukaryotic initiation factor 4A-I (EIF4A1, Homo sapiens, UniProt P60842, residues 1-406, full length assumed)
Chain of UniProt P60842 (whole entry, looked up): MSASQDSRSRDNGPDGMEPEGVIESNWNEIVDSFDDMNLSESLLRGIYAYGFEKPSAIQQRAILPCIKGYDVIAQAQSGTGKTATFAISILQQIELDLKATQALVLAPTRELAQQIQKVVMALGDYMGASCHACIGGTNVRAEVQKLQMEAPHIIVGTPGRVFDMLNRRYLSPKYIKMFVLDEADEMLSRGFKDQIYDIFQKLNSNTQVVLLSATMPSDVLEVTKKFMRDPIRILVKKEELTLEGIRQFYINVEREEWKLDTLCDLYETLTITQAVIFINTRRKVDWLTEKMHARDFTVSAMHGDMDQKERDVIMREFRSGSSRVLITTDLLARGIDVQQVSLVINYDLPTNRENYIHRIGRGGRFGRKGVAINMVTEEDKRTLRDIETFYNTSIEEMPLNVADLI
Together with: 3 µM iPr-DMDA-PatA, 2 mM ADP, 2 mM phosphate
Oligonucleotide	4-mer enrichment [fold]
GACG	0.979
GCCC	0.759
GCCG	0.686
GUGG	0.708
GUCG	0.833
GCAU	0.871
CCAG	0.942
UAAA	1.52

Excerpt of the above (block 2):
Oligonucleotide	fluorescence intensity
GAAACGTAATGGAAATTCACCTGCTTTGAATCGTAGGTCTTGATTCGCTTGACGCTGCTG	524 a.u.
GAATTCATGATGTGCCACATGAGTACAGCCGATTAGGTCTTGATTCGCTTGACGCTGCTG	541 a.u.
CTATACGGTTGAAATCACGTGTCGTTAGGATAATTCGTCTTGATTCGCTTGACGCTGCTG	9540 a.u.
GAAAGACACCGCCACCACCTGAGCCTCCATGCGTAGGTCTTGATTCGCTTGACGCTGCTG	494 a.u.
CTATTCCAGGTTGAGCGCGTGGCTTCCTATAATTTCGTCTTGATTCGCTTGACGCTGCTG	601 a.u.
